Published values collected from several papers.
Each numbered part is a random draw from the data of one study; scales do not carry over between parts.
Sequence of UniProt Q06418 (whole entry, looked up): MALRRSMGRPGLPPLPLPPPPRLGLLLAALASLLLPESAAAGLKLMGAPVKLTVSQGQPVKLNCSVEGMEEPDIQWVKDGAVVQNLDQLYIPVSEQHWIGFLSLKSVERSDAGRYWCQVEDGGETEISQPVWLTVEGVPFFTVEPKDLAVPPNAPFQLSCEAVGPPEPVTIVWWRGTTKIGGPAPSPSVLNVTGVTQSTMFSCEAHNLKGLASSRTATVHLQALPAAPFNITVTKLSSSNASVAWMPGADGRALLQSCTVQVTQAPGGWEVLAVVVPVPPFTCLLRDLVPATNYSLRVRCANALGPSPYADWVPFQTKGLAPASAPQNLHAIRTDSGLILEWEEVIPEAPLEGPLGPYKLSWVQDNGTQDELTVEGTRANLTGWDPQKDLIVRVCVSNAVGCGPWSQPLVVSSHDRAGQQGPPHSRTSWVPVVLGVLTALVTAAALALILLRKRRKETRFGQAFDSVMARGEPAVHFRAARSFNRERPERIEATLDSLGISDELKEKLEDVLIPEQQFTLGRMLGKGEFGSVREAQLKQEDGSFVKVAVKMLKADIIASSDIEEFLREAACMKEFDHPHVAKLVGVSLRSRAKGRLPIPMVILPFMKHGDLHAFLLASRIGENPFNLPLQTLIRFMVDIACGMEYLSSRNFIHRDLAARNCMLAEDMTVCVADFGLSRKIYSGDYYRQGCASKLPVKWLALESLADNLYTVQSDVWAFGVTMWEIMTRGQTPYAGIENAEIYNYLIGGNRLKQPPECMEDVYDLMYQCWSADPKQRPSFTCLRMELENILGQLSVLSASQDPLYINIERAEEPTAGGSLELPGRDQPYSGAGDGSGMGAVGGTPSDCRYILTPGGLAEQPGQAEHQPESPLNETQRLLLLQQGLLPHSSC
Sequence of UniProt P23458 (whole entry, looked up): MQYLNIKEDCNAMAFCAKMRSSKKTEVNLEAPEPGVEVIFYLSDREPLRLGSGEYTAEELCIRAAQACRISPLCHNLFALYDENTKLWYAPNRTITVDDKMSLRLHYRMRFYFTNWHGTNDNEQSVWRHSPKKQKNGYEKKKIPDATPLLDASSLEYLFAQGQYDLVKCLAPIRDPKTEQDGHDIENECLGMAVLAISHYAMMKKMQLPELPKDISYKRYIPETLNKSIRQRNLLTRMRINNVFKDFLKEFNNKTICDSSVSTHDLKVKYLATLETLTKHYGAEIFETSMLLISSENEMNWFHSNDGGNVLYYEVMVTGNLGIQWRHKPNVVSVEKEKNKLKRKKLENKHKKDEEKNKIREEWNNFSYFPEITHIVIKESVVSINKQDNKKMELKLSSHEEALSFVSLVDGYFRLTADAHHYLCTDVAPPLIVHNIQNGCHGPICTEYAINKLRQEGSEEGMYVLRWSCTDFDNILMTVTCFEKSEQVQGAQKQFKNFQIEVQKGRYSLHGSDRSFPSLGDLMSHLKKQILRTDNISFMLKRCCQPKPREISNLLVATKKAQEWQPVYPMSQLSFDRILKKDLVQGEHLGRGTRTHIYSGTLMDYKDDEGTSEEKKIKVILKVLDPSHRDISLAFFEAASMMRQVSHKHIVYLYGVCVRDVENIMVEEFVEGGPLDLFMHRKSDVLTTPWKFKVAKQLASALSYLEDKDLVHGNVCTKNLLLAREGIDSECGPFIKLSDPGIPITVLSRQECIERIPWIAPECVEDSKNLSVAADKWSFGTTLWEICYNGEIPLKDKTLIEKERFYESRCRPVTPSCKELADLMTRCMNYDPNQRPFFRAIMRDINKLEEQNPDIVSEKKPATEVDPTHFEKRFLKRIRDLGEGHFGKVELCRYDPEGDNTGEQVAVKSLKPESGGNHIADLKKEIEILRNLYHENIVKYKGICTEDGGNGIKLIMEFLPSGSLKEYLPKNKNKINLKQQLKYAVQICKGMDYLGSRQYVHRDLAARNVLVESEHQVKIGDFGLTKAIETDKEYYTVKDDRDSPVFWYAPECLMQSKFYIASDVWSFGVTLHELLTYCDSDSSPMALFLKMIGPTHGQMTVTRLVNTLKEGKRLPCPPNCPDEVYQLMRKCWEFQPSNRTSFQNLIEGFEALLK
Sequence of UniProt Q9NRM7 (whole entry, looked up): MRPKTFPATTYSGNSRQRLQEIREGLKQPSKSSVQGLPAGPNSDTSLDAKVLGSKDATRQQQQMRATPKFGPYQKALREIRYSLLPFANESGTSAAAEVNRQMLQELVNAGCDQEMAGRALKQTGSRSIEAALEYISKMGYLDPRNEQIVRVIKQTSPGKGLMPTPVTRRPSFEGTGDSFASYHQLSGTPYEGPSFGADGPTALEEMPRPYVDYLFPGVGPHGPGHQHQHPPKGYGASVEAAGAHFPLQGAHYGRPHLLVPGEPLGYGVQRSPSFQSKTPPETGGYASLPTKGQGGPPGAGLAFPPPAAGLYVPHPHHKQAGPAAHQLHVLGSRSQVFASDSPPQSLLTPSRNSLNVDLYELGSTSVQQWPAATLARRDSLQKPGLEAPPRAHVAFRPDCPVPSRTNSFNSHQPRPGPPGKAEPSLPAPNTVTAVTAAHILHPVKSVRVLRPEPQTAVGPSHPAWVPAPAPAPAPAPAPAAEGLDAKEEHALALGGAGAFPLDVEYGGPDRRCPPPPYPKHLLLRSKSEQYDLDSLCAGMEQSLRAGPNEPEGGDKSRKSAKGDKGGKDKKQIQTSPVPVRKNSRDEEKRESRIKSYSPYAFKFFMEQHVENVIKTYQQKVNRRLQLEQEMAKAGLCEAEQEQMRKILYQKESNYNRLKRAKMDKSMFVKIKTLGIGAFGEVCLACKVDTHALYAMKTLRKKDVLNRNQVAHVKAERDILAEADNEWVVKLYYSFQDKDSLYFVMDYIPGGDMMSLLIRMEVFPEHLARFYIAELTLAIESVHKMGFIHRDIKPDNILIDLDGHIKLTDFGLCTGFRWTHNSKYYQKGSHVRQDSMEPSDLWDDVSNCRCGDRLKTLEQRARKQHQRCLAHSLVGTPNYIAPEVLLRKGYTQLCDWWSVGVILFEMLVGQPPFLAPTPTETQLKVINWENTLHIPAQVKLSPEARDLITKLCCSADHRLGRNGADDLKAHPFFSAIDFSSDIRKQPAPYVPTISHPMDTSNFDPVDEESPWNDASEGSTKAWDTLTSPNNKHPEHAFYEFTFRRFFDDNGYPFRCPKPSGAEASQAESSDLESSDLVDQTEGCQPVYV
Sequence of UniProt Q9UQB9 (whole entry, looked up): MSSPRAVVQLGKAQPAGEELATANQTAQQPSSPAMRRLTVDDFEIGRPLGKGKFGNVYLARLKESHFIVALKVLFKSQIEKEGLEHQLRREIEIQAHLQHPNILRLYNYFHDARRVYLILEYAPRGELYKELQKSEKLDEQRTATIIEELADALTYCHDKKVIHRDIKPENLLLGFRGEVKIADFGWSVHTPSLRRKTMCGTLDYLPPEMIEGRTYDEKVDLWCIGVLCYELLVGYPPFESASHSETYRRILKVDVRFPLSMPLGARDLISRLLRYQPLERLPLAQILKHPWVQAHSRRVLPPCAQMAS
Sequence of UniProt Q04759 (whole entry, looked up): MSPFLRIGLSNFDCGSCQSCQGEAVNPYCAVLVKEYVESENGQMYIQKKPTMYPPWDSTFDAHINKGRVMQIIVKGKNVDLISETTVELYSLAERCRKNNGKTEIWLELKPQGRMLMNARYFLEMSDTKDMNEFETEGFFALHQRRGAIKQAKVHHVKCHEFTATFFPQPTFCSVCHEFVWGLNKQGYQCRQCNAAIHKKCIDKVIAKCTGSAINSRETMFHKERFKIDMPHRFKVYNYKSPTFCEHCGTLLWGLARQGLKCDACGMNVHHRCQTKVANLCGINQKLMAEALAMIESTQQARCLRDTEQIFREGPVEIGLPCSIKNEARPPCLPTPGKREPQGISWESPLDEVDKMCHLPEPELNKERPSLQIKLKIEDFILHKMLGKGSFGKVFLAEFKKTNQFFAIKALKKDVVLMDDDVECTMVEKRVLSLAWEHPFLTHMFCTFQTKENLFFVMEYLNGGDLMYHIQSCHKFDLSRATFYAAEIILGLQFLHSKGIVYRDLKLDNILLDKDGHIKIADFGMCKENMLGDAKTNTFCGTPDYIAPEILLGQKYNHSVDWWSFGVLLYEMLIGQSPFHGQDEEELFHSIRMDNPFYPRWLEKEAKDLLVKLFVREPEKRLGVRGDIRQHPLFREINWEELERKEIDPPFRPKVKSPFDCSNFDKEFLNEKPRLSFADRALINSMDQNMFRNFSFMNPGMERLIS
Sequence of UniProt Q13705 (whole entry, looked up): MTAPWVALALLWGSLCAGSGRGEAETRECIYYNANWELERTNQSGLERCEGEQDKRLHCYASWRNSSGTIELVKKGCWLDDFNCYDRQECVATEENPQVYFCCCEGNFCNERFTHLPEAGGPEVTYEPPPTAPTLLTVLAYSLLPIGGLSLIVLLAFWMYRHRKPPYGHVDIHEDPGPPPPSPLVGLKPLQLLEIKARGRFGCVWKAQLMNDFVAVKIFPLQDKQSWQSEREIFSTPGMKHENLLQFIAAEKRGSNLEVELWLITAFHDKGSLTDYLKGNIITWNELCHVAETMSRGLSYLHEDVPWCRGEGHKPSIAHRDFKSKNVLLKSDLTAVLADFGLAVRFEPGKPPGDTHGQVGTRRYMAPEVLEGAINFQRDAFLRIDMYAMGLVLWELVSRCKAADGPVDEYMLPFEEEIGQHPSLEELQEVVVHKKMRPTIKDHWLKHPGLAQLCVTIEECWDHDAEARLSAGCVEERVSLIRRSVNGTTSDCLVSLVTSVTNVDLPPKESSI
Sequence of UniProt O14965 (whole entry, looked up): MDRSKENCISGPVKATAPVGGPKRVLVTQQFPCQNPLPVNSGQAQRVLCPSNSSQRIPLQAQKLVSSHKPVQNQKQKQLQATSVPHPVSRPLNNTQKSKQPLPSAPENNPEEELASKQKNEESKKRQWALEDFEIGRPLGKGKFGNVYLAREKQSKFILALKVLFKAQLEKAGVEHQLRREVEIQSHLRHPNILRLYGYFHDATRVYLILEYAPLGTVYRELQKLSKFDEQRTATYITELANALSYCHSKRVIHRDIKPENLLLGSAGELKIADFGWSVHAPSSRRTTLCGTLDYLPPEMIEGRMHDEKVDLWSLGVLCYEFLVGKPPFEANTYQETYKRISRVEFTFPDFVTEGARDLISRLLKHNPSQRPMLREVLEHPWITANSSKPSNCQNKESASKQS

Block 1
Compound: c1ccc2c(-c3ccncc3)c[nH]c2c1
Effect on: enzyme activity
Action: inhibitor
Concentration: 0.5 µM
Baseline: control
Endpoint: remaining activity
TYRO3 (Homo sapiens, UniProt Q06418): 98.1%
PRKCZ (Homo sapiens, UniProt Q05513): 98.3%
EPHA2 (Homo sapiens, UniProt P29317): 106%
IGF1R (Homo sapiens, UniProt P08069): 105%
JAK1 (Homo sapiens, UniProt P23458): 109%
PAK1 (Homo sapiens, UniProt Q13153): 99.1%
TEC (Homo sapiens, UniProt P42680): 123%
MAP3K20 (Homo sapiens, UniProt Q9NYL2): 102%
CSNK1D (Homo sapiens, UniProt P48730): 105%
CAMKK1 (Homo sapiens, UniProt Q8N5S9): 122%
CAMK1 (Homo sapiens, UniProt Q14012): 108%
Cyclin-dependent kinase 2, with cyclin E (CDK2, Homo sapiens, UniProt P24941): 91.7%
EPHA6 (Homo sapiens, UniProt Q9UF33): 104%
SIK2 (Homo sapiens, UniProt Q9H0K1): 90.5%
CLK1 (Homo sapiens, UniProt P49759): 105%
SRPK1 (Homo sapiens, UniProt Q96SB4): 108%
CSNK1E (Homo sapiens, UniProt P49674): 100%
MUSK (Homo sapiens, UniProt O15146): 78.9%
PRKCQ (Homo sapiens, UniProt Q04759): 125%
RPS6KA3 (Homo sapiens, UniProt P51812): 97.4%
FLT1 (Homo sapiens, UniProt P17948): 97.9%
CLK2 (Homo sapiens, UniProt P49760): 101%
SGK2 (Homo sapiens, UniProt Q9HBY8): 91%
PAK6 (Homo sapiens, UniProt Q9NQU5): 104%

Block 2
Structure (SMILES): CCCOc1ccc([C@@H]2[C@@H](C(=O)O)[C@H](c3ccc4c(c3)OCO4)CN2CC(=O)Nc2c(CC)cccc2CC)cc1
Technique: competition with immobilised ligand
Concentration: 1 µM
Endpoint: remaining binding
PIP4K2C (Homo sapiens, UniProt Q8TBX8); cell-free assay: 94%
STK10 (Homo sapiens, UniProt O94804); cell-free assay: 98%
LATS2 (Homo sapiens, UniProt Q9NRM7); cell-free assay: 100%
Aurora kinase C (AURKC, Homo sapiens, UniProt Q9UQB9); cell-free assay: 94%
STK38L (Homo sapiens, UniProt Q9Y2H1); cell-free assay: 100%
Ribosomal protein S6 kinase alpha-6, C-terminal kinase domain (RPS6KA6, Homo sapiens, UniProt Q9UK32); cell-free assay: 76%
CDK8 (Homo sapiens, UniProt P49336); cell-free assay: 86%
EPHB2 (Homo sapiens, UniProt P29323); cell-free assay: 100%
FLT3 (Homo sapiens, UniProt P36888, D835V/ITD); cell-free assay: 61%
Myosin-IIIb (MYO3B, Homo sapiens, UniProt Q8WXR4); binding: 52%
ACVR2B (Homo sapiens, UniProt Q13705); cell-free assay: 96%
EIF2AK1 (Homo sapiens, UniProt Q9BQI3); cell-free assay: 86%
Tyrosine-protein kinase ABL1, non-phosphorylated (ABL1, Homo sapiens, UniProt P00519, H396P); cell-free assay: 89%
ITK (Homo sapiens, UniProt Q08881); cell-free assay: 100%
HASPIN (Homo sapiens, UniProt Q8TF76); cell-free assay: 99%

Block 3
Structure (SMILES): Cc1nc(Nc2ncc(C(=O)Nc3c(C)cccc3Cl)s2)cc(N2CCN(CCO)CC2)n1
Action: inhibitor
Endpoint: inhibition
MAPK9 (Homo sapiens, UniProt P45984); 1 µM: < 50%
MKNK1 (Homo sapiens, UniProt Q9BUB5); 10 µM: < 50%
ROCK2 (Homo sapiens, UniProt O75116); 10 µM: < 50%
MAPK7 (Homo sapiens, UniProt Q13164); 10 µM: < 50%
CAMK2A (Homo sapiens, UniProt Q9UQM7); 10 µM: < 50%
Aurora kinase A (AURKA, Homo sapiens, UniProt O14965); 10 µM: < 50%
MAP2K1 (Homo sapiens, UniProt Q02750); 10 µM: 97%
MAPK3 (Homo sapiens, UniProt P27361); 1 µM: < 50%
TYRO3 (Homo sapiens, UniProt Q06418); 10 µM: 91%
MAP3K4 (Homo sapiens, UniProt Q9Y6R4); 1 µM: 74%

Single results of other studies
Cc1nc(C)c(C)nc1C — viability (A-375; 100 µM, 60 h): 98.1%
